Assay results of several laboratories.
Each line is one published result; not all experiments were run side by side. Numbers after ± are the reported error.
GPR139: Probable G-protein coupled receptor 139 (GPR139, Homo sapiens, UniProt Q6DWJ6)
Chain of UniProt Q6DWJ6 (whole entry, looked up): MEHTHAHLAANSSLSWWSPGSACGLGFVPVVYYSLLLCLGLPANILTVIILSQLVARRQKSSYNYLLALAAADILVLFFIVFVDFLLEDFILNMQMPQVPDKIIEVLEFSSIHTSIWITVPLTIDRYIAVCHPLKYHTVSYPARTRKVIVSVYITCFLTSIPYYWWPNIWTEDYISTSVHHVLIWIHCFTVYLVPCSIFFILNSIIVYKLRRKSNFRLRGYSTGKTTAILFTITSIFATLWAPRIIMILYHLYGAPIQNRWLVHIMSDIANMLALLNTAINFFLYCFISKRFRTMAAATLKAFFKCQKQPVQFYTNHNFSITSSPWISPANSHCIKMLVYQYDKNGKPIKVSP
OPRK1: Kappa-type opioid receptor (OPRK1, Homo sapiens, UniProt P41145)
Chain of UniProt P41145 (whole entry, looked up): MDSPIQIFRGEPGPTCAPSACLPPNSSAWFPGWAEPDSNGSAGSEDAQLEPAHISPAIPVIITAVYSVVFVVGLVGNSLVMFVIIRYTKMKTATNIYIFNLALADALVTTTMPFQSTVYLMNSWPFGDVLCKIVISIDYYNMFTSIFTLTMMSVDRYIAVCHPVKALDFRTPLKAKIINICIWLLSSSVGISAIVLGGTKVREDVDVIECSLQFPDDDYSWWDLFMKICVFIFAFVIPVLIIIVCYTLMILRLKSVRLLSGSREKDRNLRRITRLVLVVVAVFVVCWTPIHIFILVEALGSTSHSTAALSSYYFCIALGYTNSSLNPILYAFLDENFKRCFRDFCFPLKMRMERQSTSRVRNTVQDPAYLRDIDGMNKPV
agrC: Receptor-histidine kinase AgrC (agrC, Staphylococcus aureus, UniProt O07911)
Chain of UniProt Q15391 (whole entry, looked up): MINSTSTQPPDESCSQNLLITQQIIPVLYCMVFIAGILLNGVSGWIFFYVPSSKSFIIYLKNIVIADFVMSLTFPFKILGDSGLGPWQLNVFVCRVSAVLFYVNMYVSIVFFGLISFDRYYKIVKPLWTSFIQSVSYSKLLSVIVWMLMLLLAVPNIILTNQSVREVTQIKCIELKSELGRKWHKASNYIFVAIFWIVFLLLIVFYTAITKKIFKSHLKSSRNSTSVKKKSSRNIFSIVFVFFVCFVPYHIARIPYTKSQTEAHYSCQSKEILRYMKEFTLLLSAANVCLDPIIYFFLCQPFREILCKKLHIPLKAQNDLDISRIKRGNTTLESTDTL
Chain of UniProt P46098 (whole entry, looked up): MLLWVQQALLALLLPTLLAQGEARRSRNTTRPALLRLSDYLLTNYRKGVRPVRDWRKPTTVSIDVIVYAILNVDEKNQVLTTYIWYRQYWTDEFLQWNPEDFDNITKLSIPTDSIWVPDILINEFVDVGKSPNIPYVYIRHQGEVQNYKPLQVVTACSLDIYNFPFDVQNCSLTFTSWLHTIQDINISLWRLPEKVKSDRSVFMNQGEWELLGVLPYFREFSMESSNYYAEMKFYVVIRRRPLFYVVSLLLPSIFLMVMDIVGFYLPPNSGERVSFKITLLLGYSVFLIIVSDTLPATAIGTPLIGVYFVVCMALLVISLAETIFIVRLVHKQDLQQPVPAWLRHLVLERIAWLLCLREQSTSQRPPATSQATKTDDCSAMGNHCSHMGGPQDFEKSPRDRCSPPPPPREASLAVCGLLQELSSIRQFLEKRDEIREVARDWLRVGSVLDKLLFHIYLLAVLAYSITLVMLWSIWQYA
Chain of UniProt Q16581 (whole entry, looked up): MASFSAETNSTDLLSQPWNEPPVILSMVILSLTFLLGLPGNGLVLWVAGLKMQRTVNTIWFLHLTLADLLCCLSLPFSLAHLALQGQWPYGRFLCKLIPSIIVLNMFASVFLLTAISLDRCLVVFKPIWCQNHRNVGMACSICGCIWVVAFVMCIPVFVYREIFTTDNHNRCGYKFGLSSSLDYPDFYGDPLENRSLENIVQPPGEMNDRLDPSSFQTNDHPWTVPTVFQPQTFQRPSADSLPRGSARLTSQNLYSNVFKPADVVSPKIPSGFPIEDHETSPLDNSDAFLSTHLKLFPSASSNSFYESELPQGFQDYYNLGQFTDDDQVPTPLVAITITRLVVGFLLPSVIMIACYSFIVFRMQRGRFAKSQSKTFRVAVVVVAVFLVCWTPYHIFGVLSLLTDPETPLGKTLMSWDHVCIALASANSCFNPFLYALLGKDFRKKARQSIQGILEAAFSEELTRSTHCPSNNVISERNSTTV
Chain of UniProt P30939 (whole entry, looked up): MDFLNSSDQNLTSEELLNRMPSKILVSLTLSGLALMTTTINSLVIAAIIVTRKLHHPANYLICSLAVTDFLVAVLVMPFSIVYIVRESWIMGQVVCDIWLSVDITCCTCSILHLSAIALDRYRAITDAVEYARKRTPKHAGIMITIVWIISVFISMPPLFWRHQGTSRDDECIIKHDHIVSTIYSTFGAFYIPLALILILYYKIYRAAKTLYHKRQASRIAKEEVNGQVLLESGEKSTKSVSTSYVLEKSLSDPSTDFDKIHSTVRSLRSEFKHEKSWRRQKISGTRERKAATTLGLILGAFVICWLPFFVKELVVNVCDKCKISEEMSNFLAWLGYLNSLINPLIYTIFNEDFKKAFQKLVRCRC
Chain of UniProt P41968 (whole entry, looked up): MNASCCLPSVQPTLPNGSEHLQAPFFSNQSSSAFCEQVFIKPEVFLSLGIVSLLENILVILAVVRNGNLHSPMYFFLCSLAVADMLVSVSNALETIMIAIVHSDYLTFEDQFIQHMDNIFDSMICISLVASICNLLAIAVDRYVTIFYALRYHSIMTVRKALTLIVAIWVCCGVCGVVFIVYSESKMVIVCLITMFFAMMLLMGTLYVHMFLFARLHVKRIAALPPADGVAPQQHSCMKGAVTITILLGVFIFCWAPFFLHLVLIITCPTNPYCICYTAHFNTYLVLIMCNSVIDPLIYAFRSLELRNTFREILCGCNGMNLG
Chain of UniProt P30988 (whole entry, looked up): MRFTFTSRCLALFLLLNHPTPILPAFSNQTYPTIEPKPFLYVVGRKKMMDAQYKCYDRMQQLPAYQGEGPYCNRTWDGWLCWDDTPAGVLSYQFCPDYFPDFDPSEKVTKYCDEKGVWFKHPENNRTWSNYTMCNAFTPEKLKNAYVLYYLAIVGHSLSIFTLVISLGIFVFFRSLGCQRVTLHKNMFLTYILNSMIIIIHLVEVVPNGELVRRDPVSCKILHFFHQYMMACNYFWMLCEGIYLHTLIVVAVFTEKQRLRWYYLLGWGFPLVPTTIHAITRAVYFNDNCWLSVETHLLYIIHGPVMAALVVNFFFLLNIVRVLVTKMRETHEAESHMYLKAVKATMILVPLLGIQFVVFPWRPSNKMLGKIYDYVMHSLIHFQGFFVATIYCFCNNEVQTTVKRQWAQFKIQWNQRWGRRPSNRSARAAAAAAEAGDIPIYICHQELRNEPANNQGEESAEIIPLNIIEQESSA
Chain of UniProt Q01959 (whole entry, unmodified, looked up): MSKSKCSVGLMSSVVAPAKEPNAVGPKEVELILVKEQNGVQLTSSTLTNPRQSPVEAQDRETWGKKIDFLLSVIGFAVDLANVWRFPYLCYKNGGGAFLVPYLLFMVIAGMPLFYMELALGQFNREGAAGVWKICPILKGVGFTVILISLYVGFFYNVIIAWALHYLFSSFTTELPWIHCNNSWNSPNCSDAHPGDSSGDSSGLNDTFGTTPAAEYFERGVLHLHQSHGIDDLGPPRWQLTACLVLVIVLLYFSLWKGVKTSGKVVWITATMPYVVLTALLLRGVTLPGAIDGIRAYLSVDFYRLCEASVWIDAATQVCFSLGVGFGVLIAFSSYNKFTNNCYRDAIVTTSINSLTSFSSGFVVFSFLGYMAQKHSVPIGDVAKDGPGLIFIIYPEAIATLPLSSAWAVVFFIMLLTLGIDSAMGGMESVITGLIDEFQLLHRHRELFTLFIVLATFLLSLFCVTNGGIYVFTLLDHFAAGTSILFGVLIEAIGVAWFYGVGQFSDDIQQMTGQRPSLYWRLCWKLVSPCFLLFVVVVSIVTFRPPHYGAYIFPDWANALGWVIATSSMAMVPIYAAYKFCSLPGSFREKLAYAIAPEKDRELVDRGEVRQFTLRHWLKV
Chain of UniProt P14867 (whole entry, looked up): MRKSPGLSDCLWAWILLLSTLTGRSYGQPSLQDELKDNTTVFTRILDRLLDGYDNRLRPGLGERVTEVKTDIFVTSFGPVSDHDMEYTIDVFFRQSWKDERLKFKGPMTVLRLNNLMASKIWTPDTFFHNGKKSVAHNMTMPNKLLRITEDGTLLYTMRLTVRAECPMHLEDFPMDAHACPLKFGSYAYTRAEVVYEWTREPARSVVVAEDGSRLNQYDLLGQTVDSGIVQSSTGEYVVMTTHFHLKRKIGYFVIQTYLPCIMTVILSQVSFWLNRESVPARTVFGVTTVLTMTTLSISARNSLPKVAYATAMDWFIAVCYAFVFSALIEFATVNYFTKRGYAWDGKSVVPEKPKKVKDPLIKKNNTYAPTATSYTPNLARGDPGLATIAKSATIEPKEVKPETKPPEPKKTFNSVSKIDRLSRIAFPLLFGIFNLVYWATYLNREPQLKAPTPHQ
Chain of UniProt P41143 (whole entry, unmodified, looked up): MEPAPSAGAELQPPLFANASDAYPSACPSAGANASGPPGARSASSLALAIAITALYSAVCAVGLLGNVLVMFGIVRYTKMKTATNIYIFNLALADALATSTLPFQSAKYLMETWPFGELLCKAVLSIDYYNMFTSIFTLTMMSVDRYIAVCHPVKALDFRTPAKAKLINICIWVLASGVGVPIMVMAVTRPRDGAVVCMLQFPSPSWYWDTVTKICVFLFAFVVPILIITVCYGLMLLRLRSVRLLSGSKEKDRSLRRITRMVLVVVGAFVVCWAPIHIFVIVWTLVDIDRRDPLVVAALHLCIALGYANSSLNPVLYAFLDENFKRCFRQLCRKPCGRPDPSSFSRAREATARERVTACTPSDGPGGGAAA

Compound	tested on	assay	system	conditions	scale	quantity	result
CCCCC/C=C\C/C=C\C/C=C\C/C=C\CCCC(=O)NCCc1ccc(O)c(O)c1	Transient receptor potential cation channel subfamily V member 1 (Trpv1, Mus musculus, UniProt Q704Y3, N552L)	ion current, agonist, whole-cell patch clamp	–	24 °C, N552L, +80 mV	–	EC50	170 ± 70 nM
CCCC[C@H](NC(C)=O)C(=O)N[C@H]1CCC(=O)NCCC[C@@H](C(=O)N[C@@H](C(=O)N2CCC[C@@H]2C(N)=O)C(C)C)NC(=O)[C@H](Cc2c[nH]c3ccccc23)NC(=O)[C@H](CCCNC(=N)N)NC(=O)[C@@H](Cc2ccc(F)cc2)NC(=O)[C@H](Cc2c[nH]cn2)NC1=O	Melanocortin receptor 3 (MC3R, Homo sapiens, UniProt P41968)	cAMP, agonist	–	–	–	EC50	0.073 nM
Cc1nc2cccc(OCC(C)(C)C(=O)NC(C)C)c2c(N)c1C(=O)[O-].[Na+]	Salmonella typhimurium	Ames plate incorporation	TA1535	0.32 mg/plate, with: with rat liver S9	–	revertant colonies	13 ± 4 colonies/plate
CC[C@H](C)[C@H](NC(=O)[C@H](CCCNC(=N)N)NC(=O)[C@H](CCCNC(=N)N)NC(=O)[C@H](CC(C)C)NC(=O)[C@H](Cc1ccccc1)NC(=O)CNC(=O)CNC(=O)[C@@H](N)Cc1ccc(O)cc1)C(=O)N[C@@H](CCCNC(=N)N)C(=O)N1CCC[C@H]1C(=O)N[C@@H](CCCCN)C(=O)N[C@@H](CC(C)C)C(=O)N[C@@H](CCCCN)C(=O)O	GPR139	calcium response, agonist, BRET	HEK293T/17, transfected	–	–	EC50	13030 ± 100 nM
CC(C)(C)C(=O)OCOP(=O)(OCOC(=O)C(C)(C)C)C1CCCN(O)C1=O (stereo not shown)	MDA-MB-231	–	–	–	–	GI50	397 nM
CN(C)[C@H]1C[C@@]23CC[C@@]4(O2)C(=CC[C@]2(C)[C@@H](c5ccc6ccncc6c5)CC[C@H]24)C=C3[C@@H](O)[C@@H]1O	Mitogen-activated protein kinase 6 (MAPK6, Homo sapiens, UniProt Q16659)	ATP probe labelling, inhibitor, KiNativ profiling	–	0.1 µM	–	inhibition	2.5%
O=C1NC2(CC2)COc2ncc(F)cc2[C@H]2COCCN2c2ccn3ncc1c3n2	–	–	Sprague-Dawley rat, female, serum	oral, 2.5 mg/kg/day, 4 weeks daily, end of treatment	–	pancreatic amylase activity	1530 ± 243 U/L
CC(C)C[C@H](NC(=O)[C@H](Cc1ccccc1)NC(=O)CNC(=O)CNC(=O)[C@@H](N)Cc1ccc(O)cc1)C(=O)N[C@@H](CCCN=C(N)N)C(=O)N[C@@H](CCCN=C(N)N)C(=O)N[C@@H](CCC(N)=O)C(=O)N[C@@H](Cc1ccccc1)C(=O)N[C@@H](CCCCN)C(=O)N[C@H](C(=O)N[C@H](C(=O)N[C@H](C(=O)O)[C@@H](C)O)C(C)C)C(C)C	GPR139	calcium response, agonist, BRET	HEK293T/17, transfected	–	–	EC50	25900 ± 1880 nM
O=C(O)CCn1c(=O)oc2cc(Cl)c(Cl)cc21	5-hydroxytryptamine receptor 3A (HTR3A, Homo sapiens, UniProt P46098)	opener	–	median	–	EC50	> 50100 nM
O=C(Cc1ccc(Cl)c(Cl)c1)N1CCN[C@@H]2COC[C@H](N3CCCC3)[C@H]21	OPRK1	–	–	–	–	EC50	46 ± 5.4 nM
C[C@]12CC[C@H]3[C@@H](CC[C@H]4C[C@H](O)CC[C@@]43C)[C@@H]1CC(=O)C2	GABA-A receptor; GABA-A site (alpha1/beta2 interface) (Homo sapiens, UniProt P14867+P47870)	–	–	–	–	EC50	22000 nM
CS(C)(=O)=Nc1ccc(-c2ccc(-c3nc4cc(O[C@@H]5CO[C@H]6[C@@H]5OC[C@H]6O)[nH]c4cc3F)cc2)cc1	5-hydroxytryptamine receptor 7 (HTR7, Homo sapiens, UniProt P34969)	calcium signal, antagonist	–	10 µM	–	inhibition	17%
Cc1cc(C(c2ccc(Cl)cc2)c2ccc(Cl)cc2)sc1C(=O)N[C@@H](CCCNC(=N)N)C(=O)O	C3a anaphylatoxin chemotactic receptor (C3AR1, Homo sapiens, UniProt Q16581)	β-arrestin-2 recruitment, agonist, NanoBiT	–	–	–	EC50	138 nM
CCC[C@H](C(=O)c1ccccc1)N1CCCC1	Sodium-dependent dopamine transporter (SLC6A3, Homo sapiens, UniProt Q01959)	dopamine uptake, inhibitor	HEK293 transiently transfected	DAT V152I mutant, with: [3H]dopamine	–	Ki	927 nM
N=C(N)NCCC[C@@H]1NC(=O)[C@H](CCCCNC(=O)CCC(NC(=S)Nc2ccc(CC3CN(CC(=O)O)CCN(CC(=O)O)CCN(CC(=O)O)CCN3CC(=O)O)cc2)C(=O)NCCCC[C@@H]2NC(=O)[C@@H](Cc3ccc(O)cc3)NC(=O)[C@H](CC(=O)O)NC(=O)CNC(=O)[C@H](CCCNC(=N)N)NC2=O)NC(=O)[C@@H](Cc2ccc(O)cc2)NC(=O)[C@H](CC(=O)O)NC(=O)CNC1=O (stereo partly shown) [scandium-44 labelled]	–	PET imaging	female athymic nude mouse, muscle	intravenous, 2 h, U-87 MG xenograft, with: cRGD 50 mg/kg blocking	–	tissue uptake	0.04 ± 0.02 %ID/g
COc1ccccc1-c1n[nH]c2nc(NC3CCN(C(=O)Cc4ccc(F)cc4F)CC3)ncc12	–	bead binding, competition bead pull-down, refers to: LINJ.09.0820	Leishmania donovani axenic amastigote extract	10 µM	reference: vehicle	relative abundance	0.7
O=c1ccn([C@@H]2O[C@H](CO[P@@](O)(=S)OP(=O)(O)OP(=O)(O)O)[C@@H](O)[C@H]2O)c(=S)[nH]1	P2Y purinoceptor 14 (P2RY14, Homo sapiens, UniProt Q15391)	agonist	–	–	–	EC50	37 nM
CN1CCC(c2c[nH]c3ccc(O)cc23)CC1	5-hydroxytryptamine receptor 1F (HTR1F, Homo sapiens, UniProt P30939)	G protein activation, agonist, BRET	–	–	–	EC50	3.61 nM
CN1CC[C@]23c4c5ccc(O)c4C[C@H]2[C@@H](O)C=C[C@H]3[C@H]1C5	OPRK1	–	cell-based	–	–	EC50	122 nM
CCCCCCCCCCCCCCCCCC(=O)NC[C@H]1CC[C@H](C(=O)N[C@@H](CCC(=O)NCCCOCCOCCOCCCNC(=O)COCC(=O)N[C@@H](Cc2ccc(O)cc2)C(=O)NC(C)(Cc2ccccc2)C(=O)N[C@@H](CC(C)C)C(=O)N[C@@H](CCCC)C(=O)N[C@@H](CCCNC(=N)N)C(=O)N2CCC[C@H]2C(=O)N[C@@H](CCCNC(=N)NC)C(=O)N[C@@H](CC(N)=O)C(N)=O)C(=O)O)CC1 (stereo partly shown)	Mas-related G-protein coupled receptor member X2 (MRGPRX2, Homo sapiens, UniProt Q96LB1)	β-arrestin recruitment, agonist	–	–	–	EC50	3700 nM
CSCC[C@@H]1NC(=O)[C@@H]2CCCN2C(=O)[C@H](Cc2ccccc2)NC(=O)[C@H](CC(=O)O)NC(=O)[C@@H](NC(=O)[C@@H](NC(=O)[C@H](CO)NC(=O)[C@@H](N)Cc2ccc(O)cc2)[C@@H](C)O)CSC1=O	agrC	–	Staphylococcus aureus cells	–	–	EC50	> 10000 nM
CC(C)[C@H](NC(=O)[C@@H]1CSSC(C)(C)[C@H](NC(=O)[C@@H](N)CC(=O)O)C(=O)N[C@@H](Cc2ccccc2)C(=O)N[C@@H](Cc2c[nH]c3ccccc23)C(=O)N[C@@H](CCCCN)C(=O)N[C@@H](Cc2ccc(O)cc2)C(=O)N1)C(=O)O	Urotensin-2 receptor (UTS2R, Homo sapiens, UniProt Q9UKP6, R166A)	IP1 accumulation, agonist, HTRF	HEK293T	1 h, 37 °C, R166A mutant, 4.42	–	EC50	1 nM
CC[C@H](C)[C@@H](C(=O)N[C@@H](CC(C)C)C(=O)N[C@@H](CO)C(=O)N[C@@H](CO)C(=O)N[C@H](C(=O)N[C@@H](CC(N)=O)C(=O)N[C@H](C(=O)NCC(=O)N[C@@H](CO)C(=O)N[C@@H](CC(N)=O)C(=O)N[C@H](C(=O)N[C@@H](Cc1ccc(O)cc1)C(N)=O)[C@@H](C)O)C(C)C)[C@@H](C)O)N(C)C(=O)[C@H](C)NC(=O)CN(C)C(=O)[C@H](Cc1ccccc1)NC(=O)[C@H](CC(N)=O)NC(=O)[C@H](CC(N)=O)NC(=O)[C@H](CO)NC(=O)[C@H](CO)NC(=O)[C@H](Cc1c[nH]cn1)NC(=O)[C@@H](NC(=O)[C@H](CC(C)C)NC(=O)[C@H](Cc1ccccc1)NC(=O)[C@H](CC(N)=O)NC(=O)[C@H](C)NC(=O)[C@H](CC(C)C)NC(=O)[C@H](CCCNC(=N)N)NC(=O)[C@H](CCC(N)=O)NC(=O)[C@@H](NC(=O)[C@H](C)NC(=O)[C@@H]1CSSC[C@H](NC(=O)[C@H](CCCCN)NC(=O)CC[C@H](NC(=O)CCCCCCCCCCCCCCCCCCC(=O)O)C(=O)O)C(=O)N[C@@H](CC(N)=O)C(=O)N[C@@H]([C@@H](C)O)C(=O)N[C@@H](C)C(=O)N[C@@H]([C@@H](C)O)C(=O)N1)[C@@H](C)O)C(C)C	Calcitonin receptor (CALCR, Homo sapiens, UniProt P30988)	cAMP, agonist	–	–	–	EC50	9.77 nM
CC[C@H](C)[C@@H]1NC(=O)[C@H](Cc2ccccc2)NC(=O)[C@H](CC(=O)O)NC(=O)[C@@H](NC(=O)[C@@H](NC(=O)[C@H](CO)NC(=O)[C@@H](N)Cc2ccc(O)cc2)[C@@H](C)O)CSC(=O)[C@H](CCSC)NC1=O	agrC	–	Staphylococcus aureus cells	–	–	EC50	11 nM
Cc1cc(O)cc(C)c1C[C@H](N)C(=O)N[C@H](CCCNC(=N)N)C(=O)N[C@@H](Cc1ccccc1)C(=O)N(C)CC(=O)N(C)Cc1cc(C(F)(F)F)cc(C(F)(F)F)c1	Delta-type opioid receptor (OPRD1, Homo sapiens, UniProt P41143, V281A)	agonist	–	–	–	EC50	25.9 nM
CC[C@H](C)[C@@H]1NC(=O)[C@H](CC(=O)O)NC(=O)[C@@H](NC(=O)[C@@H](NC(=O)[C@H](CO)NC(=O)[C@@H](N)Cc2ccc(O)cc2)[C@@H](C)O)CSC(=O)[C@H](CCSC)NC1=O	agrC	–	Staphylococcus aureus cells	–	–	EC50	> 10000 nM
CC[C@H](C)[C@H](NC(=O)[C@H](CO)NC(=O)[C@H](Cc1ccc(O)cc1)NC(=O)[C@H](Cc1ccc(O)cc1)NC(=O)[C@H](CC(N)=O)NC(=O)CNC(=O)[C@H](CO)NC(=O)[C@H](Cc1ccc(O)cc1)NC(=O)[C@H](CO)NC(=O)[C@H](CO)NC(=O)[C@H](CC(N)=O)NC(=O)COCCOCCNC(=O)CN1CCN(CC(=O)O)CCN(CC(=O)O)CCN(CC(=O)O)CC1)C(=O)N[C@@H](CC(C)C)C(N)=O [copper-64 labelled]	–	dynamic PET	tamoxifen-induced PDAC mouse model, pancreas	7.5 min, CLDN4-expressing tumours	–	maximum pancreas uptake	17.9 %IA/cc
CCCCCn1ccc(C(=O)NC(C)(C)c2ccccc2)n1	Cannabinoid receptor 2 (CNR2, Homo sapiens, UniProt P34972)	calcium signal, agonist	–	–	–	EC50	> 10000 nM
